Results collected from several papers.
Compare with care: the assays were run in different laboratories.
Chain of UniProt P07711 (whole entry, looked up): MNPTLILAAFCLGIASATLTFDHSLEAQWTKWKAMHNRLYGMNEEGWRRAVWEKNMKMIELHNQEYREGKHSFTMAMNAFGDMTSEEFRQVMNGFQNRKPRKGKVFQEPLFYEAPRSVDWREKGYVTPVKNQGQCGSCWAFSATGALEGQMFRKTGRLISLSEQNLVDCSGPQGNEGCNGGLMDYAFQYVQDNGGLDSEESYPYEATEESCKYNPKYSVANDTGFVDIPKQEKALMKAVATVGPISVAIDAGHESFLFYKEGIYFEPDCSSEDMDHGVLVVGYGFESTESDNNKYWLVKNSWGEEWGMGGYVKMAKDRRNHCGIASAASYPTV
Chain of UniProt Q9UM73 (whole entry, unmodified, looked up): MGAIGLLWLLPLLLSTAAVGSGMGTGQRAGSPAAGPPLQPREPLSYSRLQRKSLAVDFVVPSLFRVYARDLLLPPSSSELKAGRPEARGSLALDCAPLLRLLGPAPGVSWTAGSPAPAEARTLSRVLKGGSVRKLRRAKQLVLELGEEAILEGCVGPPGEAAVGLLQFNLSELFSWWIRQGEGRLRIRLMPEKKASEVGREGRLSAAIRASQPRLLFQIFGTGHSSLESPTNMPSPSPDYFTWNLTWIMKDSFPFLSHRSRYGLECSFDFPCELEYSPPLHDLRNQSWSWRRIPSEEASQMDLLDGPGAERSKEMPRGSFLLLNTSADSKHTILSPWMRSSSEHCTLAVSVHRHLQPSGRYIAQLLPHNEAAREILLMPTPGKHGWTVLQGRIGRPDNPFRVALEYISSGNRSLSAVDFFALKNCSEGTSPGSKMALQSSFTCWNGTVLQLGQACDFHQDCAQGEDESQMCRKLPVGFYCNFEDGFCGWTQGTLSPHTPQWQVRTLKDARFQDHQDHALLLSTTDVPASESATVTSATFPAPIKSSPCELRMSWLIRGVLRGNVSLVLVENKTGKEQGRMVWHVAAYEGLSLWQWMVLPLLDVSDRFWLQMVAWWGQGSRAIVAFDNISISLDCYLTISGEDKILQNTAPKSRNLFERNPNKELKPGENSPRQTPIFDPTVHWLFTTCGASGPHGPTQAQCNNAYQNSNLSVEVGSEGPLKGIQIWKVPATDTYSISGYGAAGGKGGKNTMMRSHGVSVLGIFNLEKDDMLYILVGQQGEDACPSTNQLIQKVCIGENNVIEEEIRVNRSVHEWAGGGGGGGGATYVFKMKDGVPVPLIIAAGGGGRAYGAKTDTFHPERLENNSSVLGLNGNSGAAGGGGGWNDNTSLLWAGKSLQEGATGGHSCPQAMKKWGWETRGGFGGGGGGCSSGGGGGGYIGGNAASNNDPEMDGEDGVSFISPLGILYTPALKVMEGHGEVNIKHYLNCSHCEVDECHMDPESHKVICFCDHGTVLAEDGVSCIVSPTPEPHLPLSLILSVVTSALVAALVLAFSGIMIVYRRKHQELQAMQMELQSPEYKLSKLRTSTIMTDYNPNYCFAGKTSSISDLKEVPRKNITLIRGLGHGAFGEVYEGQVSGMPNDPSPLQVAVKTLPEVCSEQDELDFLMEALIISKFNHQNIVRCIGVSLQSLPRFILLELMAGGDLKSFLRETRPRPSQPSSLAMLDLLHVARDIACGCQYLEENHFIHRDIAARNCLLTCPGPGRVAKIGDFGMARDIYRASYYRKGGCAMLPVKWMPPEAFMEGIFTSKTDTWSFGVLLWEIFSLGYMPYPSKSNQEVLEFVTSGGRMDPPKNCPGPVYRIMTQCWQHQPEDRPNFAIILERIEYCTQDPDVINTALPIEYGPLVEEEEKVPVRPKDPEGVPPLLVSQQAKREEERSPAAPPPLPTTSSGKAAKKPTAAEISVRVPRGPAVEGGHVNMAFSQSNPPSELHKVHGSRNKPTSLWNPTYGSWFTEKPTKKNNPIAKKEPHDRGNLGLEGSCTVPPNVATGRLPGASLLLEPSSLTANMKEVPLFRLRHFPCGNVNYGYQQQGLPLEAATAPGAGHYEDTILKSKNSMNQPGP
Chain of UniProt P53667 (whole entry, looked up): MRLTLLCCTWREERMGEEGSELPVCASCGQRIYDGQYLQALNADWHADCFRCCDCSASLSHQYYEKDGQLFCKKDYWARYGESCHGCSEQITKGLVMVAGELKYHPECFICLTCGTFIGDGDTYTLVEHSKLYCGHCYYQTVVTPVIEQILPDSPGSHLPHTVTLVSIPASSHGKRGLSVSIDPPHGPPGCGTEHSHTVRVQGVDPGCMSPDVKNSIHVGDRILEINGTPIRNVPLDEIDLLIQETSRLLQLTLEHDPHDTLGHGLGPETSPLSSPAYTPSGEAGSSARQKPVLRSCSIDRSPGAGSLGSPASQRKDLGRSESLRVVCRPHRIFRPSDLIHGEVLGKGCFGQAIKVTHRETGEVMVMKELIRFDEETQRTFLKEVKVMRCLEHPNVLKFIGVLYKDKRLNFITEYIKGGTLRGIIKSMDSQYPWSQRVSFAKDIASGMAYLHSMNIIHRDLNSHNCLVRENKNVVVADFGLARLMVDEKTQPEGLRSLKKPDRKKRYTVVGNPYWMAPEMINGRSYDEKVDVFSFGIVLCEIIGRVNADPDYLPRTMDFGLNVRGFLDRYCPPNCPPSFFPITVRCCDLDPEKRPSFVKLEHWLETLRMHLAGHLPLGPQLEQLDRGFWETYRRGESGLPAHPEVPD
Chain of UniProt O43283 (whole entry, looked up): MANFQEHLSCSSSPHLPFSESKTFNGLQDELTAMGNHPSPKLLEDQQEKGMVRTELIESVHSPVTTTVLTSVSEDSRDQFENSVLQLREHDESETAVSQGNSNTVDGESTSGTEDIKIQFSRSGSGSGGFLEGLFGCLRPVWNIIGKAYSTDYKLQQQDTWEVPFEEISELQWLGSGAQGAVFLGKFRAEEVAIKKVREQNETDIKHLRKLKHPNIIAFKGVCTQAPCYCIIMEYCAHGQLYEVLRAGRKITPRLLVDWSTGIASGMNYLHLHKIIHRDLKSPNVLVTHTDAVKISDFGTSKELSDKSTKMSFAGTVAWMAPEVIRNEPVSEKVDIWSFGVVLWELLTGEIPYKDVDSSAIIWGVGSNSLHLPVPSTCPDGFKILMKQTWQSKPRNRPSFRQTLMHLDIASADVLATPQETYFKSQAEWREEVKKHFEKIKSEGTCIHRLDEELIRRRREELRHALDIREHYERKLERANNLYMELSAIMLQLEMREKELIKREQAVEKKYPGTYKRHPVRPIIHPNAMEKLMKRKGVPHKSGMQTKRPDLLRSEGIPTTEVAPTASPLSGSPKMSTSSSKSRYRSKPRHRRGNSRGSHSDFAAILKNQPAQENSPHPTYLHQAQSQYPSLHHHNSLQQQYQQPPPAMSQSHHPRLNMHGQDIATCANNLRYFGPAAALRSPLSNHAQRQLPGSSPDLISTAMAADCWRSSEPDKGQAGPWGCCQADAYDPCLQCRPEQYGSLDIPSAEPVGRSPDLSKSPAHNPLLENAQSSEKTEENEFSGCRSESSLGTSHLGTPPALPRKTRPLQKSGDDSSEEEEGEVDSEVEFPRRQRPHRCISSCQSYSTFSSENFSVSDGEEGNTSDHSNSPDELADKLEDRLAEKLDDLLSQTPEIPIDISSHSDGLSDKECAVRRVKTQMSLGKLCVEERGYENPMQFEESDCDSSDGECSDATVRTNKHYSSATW
Chain of UniProt Q15759 (whole entry, looked up): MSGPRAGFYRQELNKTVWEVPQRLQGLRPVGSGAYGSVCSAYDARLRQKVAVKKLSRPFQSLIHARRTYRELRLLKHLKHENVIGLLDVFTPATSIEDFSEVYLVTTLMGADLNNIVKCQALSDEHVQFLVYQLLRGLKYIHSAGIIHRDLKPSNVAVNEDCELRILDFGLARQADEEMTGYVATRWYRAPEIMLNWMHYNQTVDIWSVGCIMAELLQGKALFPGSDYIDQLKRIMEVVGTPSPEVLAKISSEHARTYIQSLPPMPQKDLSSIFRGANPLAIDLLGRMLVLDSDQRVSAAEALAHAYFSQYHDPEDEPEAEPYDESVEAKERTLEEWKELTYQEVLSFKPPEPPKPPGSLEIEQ
Chain of UniProt O75582 (whole entry, looked up): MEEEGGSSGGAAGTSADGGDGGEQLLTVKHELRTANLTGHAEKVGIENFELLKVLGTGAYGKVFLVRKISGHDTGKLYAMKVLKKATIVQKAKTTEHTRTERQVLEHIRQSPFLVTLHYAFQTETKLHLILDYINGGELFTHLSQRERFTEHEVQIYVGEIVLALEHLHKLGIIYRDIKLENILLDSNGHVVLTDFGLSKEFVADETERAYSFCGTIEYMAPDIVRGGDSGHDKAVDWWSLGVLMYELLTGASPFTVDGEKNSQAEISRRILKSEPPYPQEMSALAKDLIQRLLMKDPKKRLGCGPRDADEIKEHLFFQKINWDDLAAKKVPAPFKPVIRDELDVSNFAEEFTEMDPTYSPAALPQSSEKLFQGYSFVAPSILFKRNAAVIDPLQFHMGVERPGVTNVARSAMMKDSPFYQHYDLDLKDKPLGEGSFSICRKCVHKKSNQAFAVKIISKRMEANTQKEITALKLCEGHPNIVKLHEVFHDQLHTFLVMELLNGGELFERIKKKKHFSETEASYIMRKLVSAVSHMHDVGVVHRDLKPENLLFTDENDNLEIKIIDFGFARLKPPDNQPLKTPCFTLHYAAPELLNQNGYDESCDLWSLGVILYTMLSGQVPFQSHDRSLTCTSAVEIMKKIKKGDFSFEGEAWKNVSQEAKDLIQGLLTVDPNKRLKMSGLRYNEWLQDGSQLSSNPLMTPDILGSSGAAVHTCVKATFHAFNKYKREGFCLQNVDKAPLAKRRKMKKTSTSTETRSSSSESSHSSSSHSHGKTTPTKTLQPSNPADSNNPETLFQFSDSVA

Cc1cc([C@@H](C)Nc2ccccc2C(=O)O)c2nc(N3CCC(F)(F)CC3)c(C#N)c(=O)n2c1
remaining binding (Mitogen-activated protein kinase 11 (MAPK11, Homo sapiens, UniProt Q15759); binding, competition with immobilised ligand; 10 µM): 100%

Nc1ncnc2occ(-c3ccc(NC(=O)Nc4cc(C(F)(F)F)ccc4F)cc3)c12
remaining signal (Mitogen-activated protein kinase kinase kinase 13 (MAP3K13, Homo sapiens, UniProt O43283); cell-free assay, inhibitor; 20 µM): 20%

C=CC(=O)N1CCC(COCC(=O)N2CCN(c3nc(-c4cnc(N)nc4C(F)F)nc(N4CCOC[C@@H]4C)n3)CC2)CC1
remaining binding (Cyclin-dependent kinase-like 2 (CDKL2, Homo sapiens, UniProt Q92772); binding, competition with immobilised ligand; 1 µM): 100%

COc1cc(-c2cncc3c2CN(C)Cc2cc(N4CCNCC4)ccc2-3)cc(OC)c1OC
remaining activity (Serine/threonine-protein kinase MARK2 (MARK2, Homo sapiens, UniProt Q7KZI7); enzyme activity, inhibitor; 1 µM): 118%

Cc1ccc(C=O)c(O)c1
remaining activity (Procathepsin L (CTSL, Homo sapiens, UniProt P07711); enzyme activity, inhibitor; 100 µM): 151%

O=C1O[C@H]([C@@H](O)CO)C(O)=C1O
inhibition (ABTS scavenging; 150 µg/mL): 99%

CCCCC(=O)Nc1ccc(-c2ccc3ncn(CCC)c(=O)c3c2)cn1
remaining binding (Ribosomal protein S6 kinase alpha-5, C-terminal kinase domain (RPS6KA5, Homo sapiens, UniProt O75582); binding, competition with immobilised ligand; 0.5 µM): 100%

CCN(O)N=Nc1ccc(S(=O)(=O)Nc2nccs2)cc1
inhibition (ABTS scavenging; 180 µg/mL): 45.2%

C1=C/COCc2cc(ccc2OCCN2CCCC2)Nc2nccc(n2)-c2cccc(c2)COC/1
remaining binding (ALK tyrosine kinase receptor (ALK, Homo sapiens, UniProt Q9UM73, L1196M); binding; 0.1 µM): 97%

CNc1ncc2c(/C=C/C(=O)N3CCC(OC)CC3)nn(Cc3cccc(C(F)(F)F)c3)c2n1
remaining activity (LIM domain kinase 1 (LIMK1, Homo sapiens, UniProt P53667); enzyme activity, inhibitor, radiometric; 1 µM): 93%

Repeated from above:
CCCCC(=O)Nc1ccc(-c2ccc3ncn(CCC)c(=O)c3c2)cn1
remaining binding (Ribosomal protein S6 kinase alpha-5, C-terminal kinase domain (RPS6KA5, Homo sapiens, UniProt O75582); binding, competition with immobilised ligand; 0.5 µM): 100%
